Results of several laboratories.
Every numbered part comes from another study and shows a few of its results, in no order. Changes are numbered by the printed parent chain.

Series 1
Target: Ras GTPase-activating protein-binding protein 1, full length (G3BP1, Homo sapiens, UniProt Q13283)
Chain of UniProt Q13283 (whole entry, looked up): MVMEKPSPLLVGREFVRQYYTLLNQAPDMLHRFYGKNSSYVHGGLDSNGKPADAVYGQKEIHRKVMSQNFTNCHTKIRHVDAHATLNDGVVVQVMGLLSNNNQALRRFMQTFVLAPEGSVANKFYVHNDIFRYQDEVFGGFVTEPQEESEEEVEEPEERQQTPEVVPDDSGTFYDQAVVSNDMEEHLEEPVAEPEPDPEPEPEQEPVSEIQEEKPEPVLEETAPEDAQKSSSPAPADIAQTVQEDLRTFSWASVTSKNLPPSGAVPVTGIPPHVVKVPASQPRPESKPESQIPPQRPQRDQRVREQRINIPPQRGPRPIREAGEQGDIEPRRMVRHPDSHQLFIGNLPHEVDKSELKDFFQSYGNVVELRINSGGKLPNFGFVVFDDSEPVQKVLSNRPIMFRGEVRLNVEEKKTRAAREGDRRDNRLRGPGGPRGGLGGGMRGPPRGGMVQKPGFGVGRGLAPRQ
Method: RNA Bind-n-Seq
Form: RNA
Matrix: in vitro
Tested at: 200 nM
Setting: whole 134-nt RNA, ends assumed
Together with: 150 mM LiCl
Baseline: input library
Reading: higher = stronger binding
All molecules: 7-deaza-guanosine replaces G
All sequences stand within: GGGAGUUCUACAGUCCGACGAUC … UGGAAUUCUCGGGUGUCAAGG
| Strand | log2 enrichment |
| --- | --- |
| UAACUUUAGAGGAGGAUCUGAUGGAUAUGGCAGUGGACGUGGAUAUGGGGAUGGCUAUAAUGGGUAUGGAGGAGGACCUGGAGGUGGCAA | -0.072 |
| CCUCAAGUCCUGUGCUACACAUCGUAUGUACCGAAUCGGGUUGGUUGGUUGGGAAAGUAUUAUGUUACGCCGUUCGGAUCUGCACUUCCA | 0.387 |
| AAGUCCUGUGCUACACAUCGUAUGUACCGAAUCGGGUGGGAAAAAGGGUUUUUGGGAAAGUAUUAUGUUACGCCGUUCGGAUCUGCACUU | -1.16 |
| UAACUUUAGAGGAGGAACUGAUGGAUAUGGCAGUGGACGUGGAUUUGGGGAUGGCUAUAAUGGGUAUGGAGGAGGACCUGGAGGUGGCAA | -0.154 |
| CACAGACAACACGCACCCACACAGACACAGAGGGAAGGGAUUGGGAUGGGGACAGGGUGCACAGCAGGGCGGGGUAGGACCCCAGCCCCU | -0.749 |
| AAGUCCUGUGCUACACAUCGUAUGUACCGAAUCGGAAAGGUUUUUUUGGAAAAAGGAAAGUAUUAUGUUACGCCGUUCGGAUCUGCACUU | -1.63 |
| CUCAAGUCCUGUGCUACACAUCGUAUGUACCGAAUCGGGUGGGGUGGGGUGGGGAAAGUAUUAUGUUACGCCGUUCGGAUCUGCACUUCC | -0.476 |
| CUCAAGUCCUGUGCUACACAUCGUAUGUACCGAAUCGGGCCGGGCCGGGGCCGGAAAGUAUUAUGUUACGCCGUUCGGAUCUGCACUUCC | 0.571 |
| UCCUGUGCUACACAUCGUAUGUACCGAAUCAAAUUUAAAUUUUUUUAAAUUUUUUUAAAAAAGUAUUAUGUUACGCCGUUCGGAUCUGCA | -2.57 |
| CCUCAAGUCCUGUGCUACACAUCGUAUGUACCGAAUCGGAAAGGAGGUUUGGAAAGUAUUAUGUUACGCCGUUCGGAUCUGCACUUCCAG | -0.731 |
| UCCUGUGCUACACAUCGUAUGUACCGAAUCGGGGUUUUUGGGUUUUUGGGGUUUUUGGGGAAAGUAUUAUGUUACGCCGUUCGGAUCUGC | -0.0334 |

Series 2
Target: CCNB2, cyclin fold, Cln2 fusion (human)
Method: yeast growth competition, sequencing
Matrix: yeast
Setting: weak parent motif
Baseline: not given
Reading: higher = stronger binding
Starting sequence: DOT1L docking peptide (human); SEAKRRIVFTITT; partner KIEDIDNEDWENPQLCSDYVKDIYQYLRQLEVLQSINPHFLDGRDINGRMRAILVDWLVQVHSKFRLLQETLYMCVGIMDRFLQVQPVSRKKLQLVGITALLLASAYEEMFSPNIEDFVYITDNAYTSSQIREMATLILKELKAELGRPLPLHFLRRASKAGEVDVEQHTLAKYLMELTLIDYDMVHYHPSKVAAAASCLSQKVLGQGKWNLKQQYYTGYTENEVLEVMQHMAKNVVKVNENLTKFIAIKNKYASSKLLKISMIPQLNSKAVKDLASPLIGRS
| Variant | normalised enrichment score |
| --- | --- |
| K4A | 0.131 |
| F9A | 0.479 |
| T13A | 0.174 |
| R6A | -0.0166 |
| R5A | -0.0478 |
| V8A | 0.325 |

Series 3
Target: ABI1, truncated, D143A, DHFR fusion (Arabidopsis thaliana)
Method: DHFR PCA, deep sequencing
Matrix: yeast
Setting: methotrexate growth selection, single substitutions
Together with: (+)-ABA 1.4 µM
Baseline: wild-type fitted maximum
Reading: higher = stronger binding
Starting sequence: PYL1, truncated, DHFR fusion (Arabidopsis thaliana); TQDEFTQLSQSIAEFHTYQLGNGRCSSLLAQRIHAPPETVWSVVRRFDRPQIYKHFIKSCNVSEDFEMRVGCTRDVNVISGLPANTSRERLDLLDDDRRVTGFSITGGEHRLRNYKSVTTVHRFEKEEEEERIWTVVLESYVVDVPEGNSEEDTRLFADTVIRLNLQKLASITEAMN
| Variant | relative binding score [%] |
| --- | --- |
| D65C | 26.4 |
| E125V | 74.2 |
| V118L | 10.1 |
| V121S | -7.12 |
| R123Q | 68.2 |
| R32P | 28.4 |
| R163C | -7.23 |
| G71V | -5.65 |
| V137Y | -6.79 |
| C25E | -18.7 |
| Q167S | 58.8 |
| P36E | 40.4 |
| R46G | -7.56 |
| C60S | -1.28 |
| G23L | 9.57 |
| C72P | 6.84 |
| S11L | 31 |
| E89C | -3.13 |
| Y53F | 9.25 |
| F103K | 0.257 |
| V142R | 15.5 |
| S27Q | 21.2 |
| E109M | 8.82 |
| F157T | 9.99 |
| Q2I | 77.1 |

Series 4
Target: NFE2L2, bZIP domain (human)
Method: DHFR protein complementation
Matrix: yeast
Setting: single substitutions, most at no-binding floor
Baseline: wild-type JUN-FOS pair
Reading: higher = stronger binding
Starting sequence: JUN, bZIP domain (human); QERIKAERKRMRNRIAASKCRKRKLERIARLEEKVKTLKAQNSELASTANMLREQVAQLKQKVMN; partner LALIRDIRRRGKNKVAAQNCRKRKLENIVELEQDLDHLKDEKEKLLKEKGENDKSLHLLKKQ
| Variant | binding fitness [natural log] |
| --- | --- |
| E32A | -1.3 |
| A46M | -1.36 |
| A46Q | -1.28 |
| A40S | -1.4 |
| Q55V | -1.6 |
| M51K | -1.45 |
| R30Y | -1.21 |
| K34G | -1.43 |
| K39T | -1.41 |
| E33W | -1.21 |
| Q41V | -1.4 |
| L52K | -1.48 |
| R53C | -1.37 |

Series 5
Target: Sal-like protein 4, full length isoform B (SALL4, Homo sapiens, UniProt Q9UJQ4-2, residues 1-616)
Method: universal PBM
Form: double-stranded DNA, one strand shown
Matrix: in vitro
Tested at: not given
Setting: 8-mer, flanks averaged, mean of replicates
Reading: higher = stronger binding
Residues (chain): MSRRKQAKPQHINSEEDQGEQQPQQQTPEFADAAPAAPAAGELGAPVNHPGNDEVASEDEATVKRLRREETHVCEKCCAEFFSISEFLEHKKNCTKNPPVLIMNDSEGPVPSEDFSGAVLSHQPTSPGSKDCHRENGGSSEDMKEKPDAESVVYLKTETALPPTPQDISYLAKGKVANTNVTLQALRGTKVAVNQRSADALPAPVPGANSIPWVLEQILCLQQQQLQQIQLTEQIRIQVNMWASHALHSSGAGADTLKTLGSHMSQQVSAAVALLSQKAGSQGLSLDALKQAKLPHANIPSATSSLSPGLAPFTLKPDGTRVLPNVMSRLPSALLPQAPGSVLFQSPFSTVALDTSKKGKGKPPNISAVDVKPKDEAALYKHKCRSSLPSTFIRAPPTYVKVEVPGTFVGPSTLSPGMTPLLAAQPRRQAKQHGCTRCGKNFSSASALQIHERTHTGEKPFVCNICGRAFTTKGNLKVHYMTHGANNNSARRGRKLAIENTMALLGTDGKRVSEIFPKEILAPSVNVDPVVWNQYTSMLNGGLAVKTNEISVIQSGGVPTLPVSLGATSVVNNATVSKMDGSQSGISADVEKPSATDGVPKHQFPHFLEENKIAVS
| Strand | E-score |
| --- | --- |
| CTGACTTA | 0.13 |
| ACATTAAA | 0.304 |
| CAATTTAG | 0.152 |
| CGGGGGCA | -0.165 |
| ATACCGAT | 0.0544 |
| AAGACATC | -0.0116 |
| TAATGCGA | 0.237 |
| ACTGGTTA | 0.14 |
| TCCATAGA | 0.089 |
| CAAGCATA | 0.134 |
| CTCCCTAC | 0.00374 |
| CTACAACA | 0.126 |
| AGCAGTAA | 0.125 |
| ATTGGACG | 0.118 |
| ACCACAAT | 0.0655 |
| ACGCGAAA | 0.0357 |
| CGTCGTTC | 0.0237 |
| ACTTTTTG | 0.0875 |
| AAAAGGAT | 0.184 |
| GAGCTTGA | -0.179 |
| CGATTAAA | 0.228 |
| ACGCGAGA | -0.0742 |
| TATAAGCA | 0.291 |

Series 6
Target: Interferon regulatory factor 7, full length, phosphomimetic (IRF7, Homo sapiens, UniProt Q92985, residues 1-503, S101K/S471D/S472D/S475D/S476D/S477D/S483D/S484D/S487D)
Method: protein-binding microarray
Form: double-stranded DNA, one strand shown
Matrix: in vitro
Tested at: 250 nM
Setting: 60-bp whole probe
Together with: salmon DNA 0.4 mg/ml
Baseline: random background probes
Reading: higher = stronger binding
All sequences stand within: GCCTAGCAC … GTCTTGATTCGCTTGACGCTGCTG
Residues (chain): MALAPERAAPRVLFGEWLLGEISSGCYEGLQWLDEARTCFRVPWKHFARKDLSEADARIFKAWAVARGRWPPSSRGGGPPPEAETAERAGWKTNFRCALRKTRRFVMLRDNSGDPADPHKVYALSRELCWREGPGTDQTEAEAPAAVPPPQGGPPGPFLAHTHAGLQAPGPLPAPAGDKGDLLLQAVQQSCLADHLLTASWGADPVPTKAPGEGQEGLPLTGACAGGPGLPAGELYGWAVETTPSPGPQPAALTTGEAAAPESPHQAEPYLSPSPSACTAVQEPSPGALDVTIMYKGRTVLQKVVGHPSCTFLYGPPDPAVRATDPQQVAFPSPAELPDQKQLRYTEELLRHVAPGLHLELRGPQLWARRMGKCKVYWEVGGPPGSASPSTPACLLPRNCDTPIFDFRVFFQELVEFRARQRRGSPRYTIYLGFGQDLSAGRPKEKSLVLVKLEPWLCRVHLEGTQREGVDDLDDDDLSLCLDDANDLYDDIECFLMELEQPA
| Strand | log fluorescence [z-score] |
| --- | --- |
| TTAGGTTACGGTTCCGGTTAGTGCTAG | 2.67 |
| TCATCTCACGCATCTGAAACTGTGCTA | 0.343 |
| GACGAACTGAGTTTCCAGACGTGCTAG | 0.335 |
| TTATATCTCAGTCTCGATTAGTGCTAG | 1.9 |
| TCAATTTTCATTAACTGACTGTGCTAG | 0.66 |
| TTAGGACTGAACACTGGGTTAGTGCTA | -0.476 |
| GACGAACTGAGTATCGAGACGTGCTAG | 0.0336 |
| GACGGTTTCGGTATCGGCACGTGCTAG | 10.2 |
| TTAGTTATCAGTTTCGATTAGTGCTAG | 8.62 |
| TGAGGACTGGACTATCGGTTAGTGCTA | -0.497 |
| TCAAATTTGGAAACCGAACTGTGCTAG | 0.65 |
| GACGGTCTCCTTATGCTGACGTGCTAG | 0.014 |
| GACGATCACAGTTTCGAGACGTGCTAG | 3.75 |
| TTAGGACTGGGGACTGGGTAAGTGCTA | -0.532 |
| TTAGGTATCGGGACTGGGCTAGTGCTA | -0.293 |
| GACCGACTGGACTATCGGGACGTGCTA | -0.26 |
| TTAGGACTGCTTCTCCTTCAGTGCTAG | 0.445 |

Single results of other studies
| Molecule | target | assay | test system | setting | how to read | measurement | result |
| --- | --- | --- | --- | --- | --- | --- | --- |
| PhoQ, residues 284 288 289 292 302 303 AAQSYM | PhoP, residues 12 14 15 18 19 NQGLL (Escherichia coli, UniProt P23836) | Sort-seq, measured: YFP reporter | E. coli | PhoQ-PhoP variant library, together with: 10 µM Mg2+ | baseline: high Mg2+ state, higher = stronger signaling | fold induction | 3.64 |
